Measured values pooled from the literature.
Protocols differ between the studies behind these lines. “And” joins repeats or separate records; there may be more than shown. ± marks the error that the study gave. In brackets after ≈: the same amount, converted by molar mass.

With `CCN(CC)c1ccc(C=NNC(=O)CSc2nc3ccccc3c(=O)n2Cc2ccc(S(N)(=O)=O)cc2)c(O)c1` the CC50 was greater than 100 µM (COLO 205; NCI five-dose screen).
With `CCN(CC)CCOC(=O)C(O)(c1ccccc1)c1ccccc1` the inhibition was 24.7% (THP-1; pyroptotic LDH release; 2 µM, 40 min, added: LPS then nigericin).
`Nc1ncc(-c2nc(N3CCOCC3)nc(N3CCOCC3)n2)c(C(F)F)n1` gave a GI50 of 0.555 µM (MIA PaCa-2; cell growth; 72 h).
Under “log2 fold change”, `Cc1sc2c(c1C)C(c1ccc(Cl)cc1)=N[C@@H](CC(=O)OC(C)(C)C)c1nnc(C)n1-2` is recorded as 0.298 (iCas9-MOLM-13 sgGFP; RNA-seq, item: PRTN3; 50 nM, 24 h; relative to: DMSO).
Under “S phase cells”, `Cc1cc(C(C)(C)c2ccc(O)c(C)c2)ccc1O` is recorded as 8.76 ± 2.99% (HepG2 spheroids; Hoechst flow cytometry; 0.01 µM, 96 h).
`C[C@]12Cc3cnn(-c4ccc(F)cc4)c3C=C1CC[C@@H]1[C@@H]2CC[C@@]2(C)[C@H]1CC[C@@]2(O)C#N` gave an EC50 of greater than 9.96 µM (HEK293T ATF4-FLuc reporter; ATF4 reporter gene, activator, luciferase reporter).
`CC(C)(C)C(=O)C(Oc1ccc(Cl)cc1)n1cncn1` (stereo not shown) gave an inhibition of -2.41% (THP-1; pyroptotic LDH release; 2 µM, 40 min, added: LPS then nigericin).
For `C=C1[C@@H](O)[C@@H]2O[C@]3(CC[C@H](/C=C/[C@@H](C)[C@@H]4CC(C)=C[C@@]5(O[C@H](C[C@@](C)(O)C(=O)O)CC[C@H]5O)O4)O3)CC[C@H]2O[C@@H]1[C@@H](O)C[C@H](C)[C@H]1O[C@@]2(CCCCO2)CC[C@H]1C`, the LD20 was 1.7 nM (RPE-1 hTERT TP53-/- cells; cell viability).
Under “MyBP-C level change”, `Cc1c(O)c(O)cc2c1CC=C1[C@@]2(C)CC[C@@]2(C)[C@@H]3C[C@](C)(C(=O)O)CC[C@]3(C)CC[C@]12C` is recorded as 14.1 SD (human iPSC cardiomyocytes; plate-normalised; concentration not given, hit retest; relative to: vehicle controls, SDs below control).
For `CN1CCN(C2(CNC3CCN(c4cccc(-c5cc6cc(F)ccc6[nH]5)c4)CC3)CCC2)CC1`, the CC50 was 5.93 µM (ACHN).
Under “G2 phase cells”, `Oc1ccc(C2(c3ccc(O)cc3)c3ccccc3-c3ccccc32)cc1` is recorded as 18.2 ± 5.72% (HepG2 spheroids; Hoechst flow cytometry; 0.1 µM, 24 h).
The selectivity index of `O=C1CCP(=S)(c2ccccc2)CC1` is reported as 2.2 (SW-620; MTT; 72 h; relative to: IC50 HaCaT over IC50 SW-620).
`OC(c1ccc(-c2ccc(CN3CCN(Cc4ccncc4)CC3)cc2)c(F)c1)(C(F)(F)F)C(F)(F)F` — result for chromatin accessibility: “decreased” (EL4; ATAC-seq, item: RORγt-regulated Th17 genes; 5 µM, added: PMA + ionomycin).
For `C/C=C(/C)C(=O)O[C@H]1C(C)=C2[C@H]([C@@H]1OC(=O)CCCCCCC)[C@@](C)(OC(C)=O)C[C@H](OC(=O)CCC)[C@@]1(O)[C@H]2OC(=O)[C@@]1(C)O`, “normalized enrichment score” read -0.99 (HEK-293T; RNA-seq GSEA, item: Hallmark myogenesis; 500 nM, 6 h; direction not given).
With `C[C@]12CC[C@H](O)C[C@H]1CC[C@@H]1[C@@H]2CC[C@]2(C)[C@@H](c3ccc(=O)oc3)CC[C@]12O` the apoptotic cells was 17.2% and 15.4% and 16% (MCF7 with control siRNA; annexin V flow cytometry; concentration not given, 48 h).
`Cc1nn(-c2nc3ccc(Cl)c(Cl)c3[nH]2)c(O)c1C1OC(=O)c2ccccc21` (stereo not shown) has a viability of 100% and 97.4% and 107% (RAW-ISG; CCK-8; 0.1 µM).
The CC50 of `Cn1cncc1C1=CN(c2ncnc3[nH]cnc23)CCS1` is reported as greater than 200 µM (TK-10; renal cancer).
`COC(=O)/C(C)=C\C[C@@]12OC(C)(C)[C@@H]3C[C@@H](C=C4C(=O)c5c(O)c6c(c(CC=C(C)C)c5O[C@]431)O[C@](C)(CCC=C(C)C)C=C6)C2=O` — result for “MyBP-C level change”: 17.2 SD (human iPSC cardiomyocytes; plate-normalised; concentration not given, hit retest; relative to: vehicle controls, SDs below control).
The PI-positive cells of `Cn1nccc1Nc1nccc(-c2ccn([C@H](CO)c3ccc(Cl)c(F)c3)c(=O)c2)n1` is reported as 21.9 count and 23.8 count and 14.2 count (HCT116; IncuCyte; concentration not given, 48 (unit not given)).
The CC50 of `CC(C)N1CCC(NC2CCN(c3cccc(-c4cc5cc(F)ccc5[nH]4)c3)CC2)CC1` is reported as 7.5 µM (TK-10).
For `O=C1N(Cc2ccccc2Cl)c2ccccc2C12NN=C(c1ccccc1)S2` (stereo not shown), the fold change was 1.53 (MDA-MB-468; gene expression array, item: RPS2 mRNA; 10 µM, 12 h; relative to: untreated, up).
The GFP fluorescence of `O=c1cc(-c2ccccc2)oc2c(O)c(O)ccc12` is reported as 116 to 127% (SH-SY5Y Aβ-GFP cells; Aβ folding; 1 to 5 µM; relative to: untreated induced cells).
The Log10LC50 of `COc1cc(CCC[P+](c2ccccc2)(c2ccccc2)c2ccccc2)c(OC)c2c1OCO2.[I-]` is reported as greater than -4 log M (NCI/ADR-RES; SRB).
`O=S(=O)(c1ccc(O)cc1)c1ccc(O)cc1` — result for “G2 phase cells”: 19.8 ± 4.37% (HepG2 spheroids; Hoechst flow cytometry; 1 µM, 24 h).
For `COP(=O)(OC)OC=C(Cl)Cl`, the viability was 37.8% and 68.6% (MDA-MB-231 BAX/BAK siRNA knockdown; CellTiter-Glo; concentration not given; relative to: normalised luminescence).
`Oc1ccc(C(c2ccc(O)cc2)(C(F)(F)F)C(F)(F)F)cc1`: “G1 phase cells” 69.4 ± 8.51% (HepG2 spheroids; Hoechst flow cytometry; 10 µM, 96 h).
Under “pathway fold enrichment”, `Nc1ncnc2c1ncn2[C@@H]1O[C@@H]2COP(=O)(O)O[C@H]3[C@@H](O)[C@H](n4cnc5c(=O)[nH]cnc54)O[C@@H]3COP(=O)(O)O[C@H]2[C@H]1O` is recorded as 6.12 (HFF-1; RNA sequencing, item: ER-Phagosome pathway; upregulated pathway; relative to: Zika virus alone).
The inhibition of `c1csc(-c2ccc(-c3cccs3)s2)c1` is reported as 11.1% (THP-1; pyroptotic LDH release; 2 µM, 40 min, added: LPS then nigericin).
For `COc1cc(C[C@@H](C)[C@@H](C)Cc2ccc(O)c(OC)c2)ccc1O`, “IL-6 mRNA level” read “decreased” (THP-1, PMA-differentiated; 10 µM, 24 h, added: LPS 1 µg/mL; relative to: LPS model).
Under “relative colony forming efficiency”, `Cc1cnc2ccc3c(nc(N)n3C)c2n1` is recorded as 95 ± 11% (BALB/c 3T3; 100 µM; relative to: solvent control).
`COc1c(CCC[P+](c2ccccc2)(c2ccccc2)c2ccccc2)cc2c(c1OC)OCO2.[I-]` gave a GI50 of -5.56 log M (OVCAR-5; SRB).
For `COc1ccc2c(c1)[nH]c1c(C)nccc12`, the methylation reduction was 1.39% (DU-145; bisulfite pyrosequencing, item: RASSF1A promoter CpG site 7; concentration not given; relative to: vehicle).
The MIC of `C[C@@H](O)[C@H]1C(=O)N2C(C(=O)O)=C(S[C@@H]3CN[C@H](C(=O)N(C)C)C3)[C@H](C)[C@H]12` is reported as 0.5 µg/mL (≈ 1.3 µM) (Escherichia coli DH5α expressing KPC-180; bacterial growth).
With `C[C@@H]1C[C@H]2[C@@H]3C[C@H](F)C4=CC(=O)C=C[C@@]4(C)[C@@]3(F)[C@@H](O)C[C@]2(C)[C@@]1(OC(=O)C1C(C)(C)C1(C)C)C(=O)OCC#N` the EC50 was 5.67 µM (HEK293T ATF4-FLuc reporter; ATF4 reporter gene, activator, luciferase reporter).
`CN1CCc2[nH]c(-c3ccnc(NC(=O)[C@@H](CC(F)F)c4ccc(F)cc4)c3)c(Nc3ccccc3)c2C1=O` — result for “log2 fold change”: -4.53 (MOLM-13; mRNA level, RNA-seq, item: PHGDH; 200 nM, 24 h; relative to: DMSO).
`COc1c(C)c2c(c(O)c1C/C=C(\C)CCC(=O)O)C(=O)OC2` gave an IC50 of 1.17 µM (EFO-21; cell proliferation).
For `O=c1cc(-c2ccc(O)cc2)oc2c([C@@H]3OC[C@H](O)[C@H](O)[C@H]3O)c(O)c([C@@H]3O[C@H](CO)[C@@H](O)[C@H](O)[C@H]3O)c(O)c12`, autolysosome formation read “increased” (CaMKII-δ overexpressing cells; GFP-RFP-LC3 reporter; concentration not given, adenoviral CaMKII-δ overexpression).
